Published values pooled from the literature.
Each line is one published result; not all experiments were run side by side. ± marks the error that the study gave.

| Structure (SMILES) | tested on | test | system | setting | scale | quantity | result |
| --- | --- | --- | --- | --- | --- | --- | --- |
| CC(=O)N[C@H](C(=O)N[C@H](C(=O)N[C@@H](CCCNC(=N)N)C(=O)N1Cc2ccccc2C[C@H]1C(=O)N[C@@H](Cc1ccccc1)C(N)=O)C1CCCCC1)C(C)C | human PBMC | Bio-Plex multiplex, measured: IL-13 |  | 250 µg/mL, 24 h |  | cytokine level | < 0.3 pg/mL |
| O=C(O)CCC(NP(=O)(O)OCCC[C@@H](NC(=O)CC[C@H](NC(=O)CCCCCNC(=O)c1ccc([18F])cc1)C(=O)O)C(=O)O)C(=O)O (stereo partly shown) | CWR22Rv1 tumour model |  | host not given, lung | 1 h, tumour-bearing |  | tracer uptake | 0.341 %ID/g |
| [64Cu+2].c1cnc(CNCc2ccc(CN3CCCN4CCNCCCN(CC4)CC3)cc2)nc1 | CXCR4 (human) |  | NOD/SCID mice, U87 xenografts, U87 control tumour | 30 min post-injection |  | tissue uptake | 4.78 ± 0.21 %ID/g |
| N#Cc1ccc(-c2ccc(-c3cccs3)o2)nc1 | Salmonella typhimurium | liquid broth OD | TA1535 | 100 µM, 15 h | baseline: growth | viability | 117 ± 9.6% |
| Cn1c(=O)oc2ccc(-c3ccc(CC(C#N)NC(=O)C4CNCCCO4)c(F)c3)cc21 (stereo not shown) |  | measured: anaemia | human | 40 mg single dose, fasted |  | subjects with TEAE | 8.3% |
| N=C(N)c1ccc(-c2ccc(-c3cccs3)s2)cc1 | Salmonella typhimurium | liquid broth OD | TA1535 | 100 µM, 15 h | baseline: growth | viability | 51.4 ± 3.8% |
| C=CCC1=C[C@]2(C[C@H](O)C(C)(C)O2)C2=C(C[C@@H]3C[C@H]4C(=C)CCCC(C)(C)[C@@H]4C[C@]3(C)O2)C1=O | coxsackievirus B3 | cytopathic effect | Vero, Nancy |  | baseline: CC50 over IC50 | selectivity index | 2.6 |
| N=C(N)c1ccc(-c2ccc(-c3ccco3)o2)cc1 | Salmonella typhimurium | liquid broth OD | TA1535 | 50 µM, 15 h | baseline: growth | viability | 46.5 ± 3.4% |
| [64Cu+2].c1ccc(CNCc2ccc(CN3CCCN4CCNCCCN(CC4)CC3)cc2)nc1 | CXCR4 |  | NOD/SCID mouse, U87 and U87-stb-CXCR4 xenografts, spleen | iv, 120 min, ex vivo |  | tissue uptake | 14.9 ± 2.4 %ID/g |
| N#Cc1ccc(-c2ccc(-c3ccco3)o2)nc1 | Salmonella typhimurium | liquid broth OD | TA1535 | 100 µM, 15 h | baseline: growth | viability | 101 ± 9.7% |
| C=CCC1=C[C@]2(C[C@H](O)C(C)(C)O2)C2=C(C[C@@H]3C[C@@H]4[C@@H](C[C@]3(C)O2)C(=C)CCCC4(C)C)C1=O | coxsackievirus B3 | cytopathic effect | Vero, Nancy |  | baseline: CC50 over IC50 | selectivity index | 4.3 |
| [99Tc+].[C-]#[N+]CC(C)(C)OC.[C-]#[N+]CC(C)(C)OC.[C-]#[N+]CC(C)(C)OC.[C-]#[N+]CC(C)(C)OC.[C-]#[N+]CC(C)(C)OC.[C-]#[N+]CC(C)(C)OC | human sandwich-cultured hepatocytes |  |  | 20 min |  | total efflux | 89.4 ± 1.8% |
| CC(C)CCC[C@@H](C)[C@H]1CCC([C@@H]2CC[C@H]3C[C@@H](O)CC[C@]3(C)[C@H]2O)[C@]1(C)CC(=O)O (stereo partly shown) | HEK293T | CellTiter-Blue |  | concentration not given |  | viability | 85.4% |

Some of these lines once more:
| Structure (SMILES) | tested on | test | system | setting | scale | quantity | result |
| --- | --- | --- | --- | --- | --- | --- | --- |
| [64Cu+2].c1ccc(CNCc2ccc(CN3CCCN4CCNCCCN(CC4)CC3)cc2)nc1 | CXCR4 |  | NOD/SCID mouse, U87 and U87-stb-CXCR4 xenografts, spleen | iv, 120 min, ex vivo |  | tissue uptake | 14.9 ± 2.4 %ID/g |
